Assay results from different studies.
A part holds a random share of what one study measured. Substitutions count along the parent as printed.

Block 1
Molecule: PhoQ, residues 284 288 289 292 302 303 SSTLLI
Technique: Sort-seq
Refers to: YFP reporter
Medium: E. coli
Setting: PhoQ-PhoP variant library
Together with: 10 µM Mg2+
Reference: high Mg2+ state
Direction: higher = stronger signaling
PhoP, residues 12 14 15 18 19 VHTVL (Escherichia coli, UniProt P23836) — fold induction: 8.3.
It gave 12.2 for fold induction (PhoP, residues 12 14 15 18 19 ICWRQ (Escherichia coli, UniProt P23836)).
For PhoP, residues 12 14 15 18 19 TQCLL (Escherichia coli, UniProt P23836): fold induction read 12.

Block 2
Target: RING finger protein unkempt homolog, zinc fingers 1-6, SBP tag (UNK, Homo sapiens, UniProt Q9C0B0, residues 30-357)
UniProt Q9C0B0, sequence (30-357, looked up): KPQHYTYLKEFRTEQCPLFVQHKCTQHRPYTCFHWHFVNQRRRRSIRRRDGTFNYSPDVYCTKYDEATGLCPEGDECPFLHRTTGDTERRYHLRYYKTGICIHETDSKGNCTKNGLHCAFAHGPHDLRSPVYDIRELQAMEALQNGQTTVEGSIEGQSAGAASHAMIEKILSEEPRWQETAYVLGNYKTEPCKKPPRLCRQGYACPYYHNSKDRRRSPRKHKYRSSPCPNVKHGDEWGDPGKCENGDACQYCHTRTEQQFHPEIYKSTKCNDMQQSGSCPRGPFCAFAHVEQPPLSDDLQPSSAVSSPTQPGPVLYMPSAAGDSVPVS
Technique: RNA Bind-n-Seq
Form: RNA
Medium: in vitro
Tested at: 100 nM
Setting: RNA with constant flanks, vertebrate orthologous sites, ends assumed
Reference: input RNA pool
Direction: higher = stronger binding
With `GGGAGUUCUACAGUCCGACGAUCGCAAUGAAAAAGCAGCCCUUCUCCCAGCCCCCCUUUCACUAGGAGUUACAAACGUUCCUAUAGAAGAGCAAUUAAACUCAAUAAAUUUAUCUUUUCAGGAUGAUCCAGACUCCAGUACGACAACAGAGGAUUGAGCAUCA` the bound/input enrichment was 0.785 ratio.
With `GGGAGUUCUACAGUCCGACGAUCAGCAGCGCCAGGAUUCAGGACUGGUUACACAAGCAUUCCAAGUAGACAUGGAAACAGCAGUAGAGUGGGGCAGCCCUAACCGUGAUGUACUGUAACUCAUUUUCAUGAAGAAUAUGGACGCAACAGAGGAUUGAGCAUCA` the bound/input enrichment was 0.571 ratio.
For `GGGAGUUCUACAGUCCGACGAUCCCGAAAGGCCAAAUUCCCUCCUCCCUUCUACUGCUUCUACCAACUGGAAGCACAGAAAACUAGAAUUUCAUUUAUUUUCUUUUUAAAAAAUUAUAUGUUGAUUUCUUGUAACAUCCAAUACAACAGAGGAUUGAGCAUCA`, the bound/input enrichment was 0.755 ratio.
The bound/input enrichment of `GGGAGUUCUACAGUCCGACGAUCUCCCUGUAACCCCUUAAAUAGAACUUUCUUAAAAUUGUGUCCCCACCACUUCUAAAAAUUUAGCAAUAUUAGAAGACAACACUAAGAAAUUGUGCUCAUUGUUUUGCAAAUGAAAUAGUUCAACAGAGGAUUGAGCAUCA` is reported as 1.07 ratio.
`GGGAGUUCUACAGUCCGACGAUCCAACUCCAUGGUCGAGGGCUCAGAACUCAAAAAGGUCCGCUCCAACUCCAGAAUUUACCAUCGGUACUUUUUGCUGGAUGCCGAUAUGCAGAGCCUGAGAUGGGAGCCGUCUAAGAAGGACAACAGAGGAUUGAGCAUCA` has a bound/input enrichment of 0.173 ratio.
For `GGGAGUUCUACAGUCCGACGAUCCGGCGCCAUCUGCCGAGCGCAGUGCUCCGCGCCAGUGCCCUUCGUCCCUUCACACUGAACCUAGCUAUAGGAAUUUCAUAUUUUUAAAAGUUUUACAUUGCUGUAUAUUCAAAGAUUUGUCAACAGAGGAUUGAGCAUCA`, the bound/input enrichment was 0.357 ratio.
`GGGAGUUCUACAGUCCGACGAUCAGGCAAAAAAUCCUGGCUGCUUUUUGUGAGGUAAAGUGCCCGUUGGCAUGUGGUUGAUACCAGCACCAUUGUCCCUAGUCUCUCAGUGUUUCAUUUCUUCCAUACAAGUUCUCAUCAGACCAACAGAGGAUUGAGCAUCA` gave a bound/input enrichment of 0.4 ratio.
The bound/input enrichment of `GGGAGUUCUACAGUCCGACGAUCGGGGAUGGGGGGUGGGUAAGGGAUGUGGAUGAUAGGAUGUUAUUGGGAUUUUUAAGUGUUCCGGAGUUUUGUUGUUCUUCCUGUUUUUCUUUUUGUUCUUCCCAUUAAUUAGAUGCACUGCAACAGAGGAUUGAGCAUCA` is reported as 1.59 ratio.
For `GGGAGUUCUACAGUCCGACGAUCGAGCUCCAGGAGUUAGCAUCUUUAUUUUUGUAUUAAAGAUAAAGGUUAUUUUGAAAUUAUUAGGAUUUUUACACAAUUCUGAAAUCUAUUGCUUUUGUAAAUCAAUUGUUUGAUCACCCCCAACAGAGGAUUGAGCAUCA`, the bound/input enrichment was 1.42 ratio.
With `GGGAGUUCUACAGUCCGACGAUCUUAAAGUUUUUUUUUUUAAUUUAAUUUUUUCCUUUUGGGGGUACAGUUUGCUCUACCAAAUAGUGAUCGUAACAAAUUGAUCUGUUUUGGAUGUUGCUAUAGUGACAUGCAGUUAUAUAUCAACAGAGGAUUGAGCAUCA` the bound/input enrichment was 0.921 ratio.
The bound/input enrichment of `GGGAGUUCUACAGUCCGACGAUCCUGUACUAGCGCCAUACCAGCAUCUGAACUAGACCUCUGUGCACGCCUUUCUUAACCGUCUAGUUACGUUUUUCAGUUCUUUCCAGGACACUGCUUUUCCCAAGACUGAAAAAGCGAGCGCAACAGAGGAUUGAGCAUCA` is reported as 0.576 ratio.

Block 3
Target: ABI1, truncated, D143A, DHFR fusion (Arabidopsis thaliana)
Technique: DHFR PCA, deep sequencing
Medium: yeast
Setting: methotrexate growth selection, single substitutions
Together with: (+)-ABA 0.0091 µM
Reference: wild-type fitted maximum
Direction: higher = stronger binding
Starting sequence: PYL1, truncated, DHFR fusion (Arabidopsis thaliana); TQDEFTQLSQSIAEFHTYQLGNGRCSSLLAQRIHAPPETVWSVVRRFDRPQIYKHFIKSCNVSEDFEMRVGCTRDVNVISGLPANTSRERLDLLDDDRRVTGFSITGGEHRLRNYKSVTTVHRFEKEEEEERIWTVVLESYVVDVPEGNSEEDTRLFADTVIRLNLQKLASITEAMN; partner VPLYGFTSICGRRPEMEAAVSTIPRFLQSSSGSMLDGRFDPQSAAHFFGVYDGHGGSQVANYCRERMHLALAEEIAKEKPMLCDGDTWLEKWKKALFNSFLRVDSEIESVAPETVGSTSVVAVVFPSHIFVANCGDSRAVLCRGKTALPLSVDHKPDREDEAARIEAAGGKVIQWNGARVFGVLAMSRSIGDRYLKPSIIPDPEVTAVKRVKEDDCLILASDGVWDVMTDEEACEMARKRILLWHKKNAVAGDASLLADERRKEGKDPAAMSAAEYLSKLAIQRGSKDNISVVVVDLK
`R113K` — result for “relative binding score”: 50.1%.
`I162G` — result for “relative binding score”: 0.477%.
`V136Y` — result for “relative binding score”: -5.64%.
`S171E`: “relative binding score” 40%.
`I162F`: “relative binding score” -0.477%.
Under “relative binding score”, `R46D` is recorded as -1.92%.
For `R90T`, “relative binding score” read 2.9%.
`V121F`: “relative binding score” -2.03%.
`P146T`: “relative binding score” 18%.
Under “relative binding score”, `R123T` is recorded as 19.1%.
For `W41H`, “relative binding score” read -2.81%.
`D159P`: “relative binding score” -6.91%.
For `R132W`, “relative binding score” read -0.118%.
`V43N` — result for “relative binding score”: 0.817%.
For `C25G`, “relative binding score” read -1.83%.

Block 4
Target: CCNB1, cyclin fold, Cln2 fusion (human)
Technique: yeast growth competition, sequencing
Medium: yeast
Setting: weak parent motif
Reference: not given
Direction: higher = stronger binding
Starting sequence: SCAPER docking peptide (human); SNARRSLNFGGST
For `SNARISLNFGGST [R5I]`, “normalised enrichment score” read 0.0537.
Under “normalised enrichment score”, `SNARRSLFFGGST [N8F]` is recorded as 0.231.
`SNARRSLNEGGST [F9E]` — result for “normalised enrichment score”: -0.181.
`SNARRSLNLGGST [F9L]` — result for “normalised enrichment score”: 0.173.
For `SDARRSLNFGGST [N2D]`, “normalised enrichment score” read 0.403.
For `SNARRMLNFGGST [S6M]`, “normalised enrichment score” read 0.934.
`SNLRRSLNFGGST [A3L]`: “normalised enrichment score” 0.199.
For `SNARRRLNFGGST [S6R]`, “normalised enrichment score” read 1.11.
Under “normalised enrichment score”, `SNARRSNNFGGST [L7N]` is recorded as -0.166.
`SNAKRSLNFGGST [R4K]` — result for “normalised enrichment score”: 0.606.
For `SNARRKLNFGGST [S6K]`, “normalised enrichment score” read 1.29.
Under “normalised enrichment score”, `SNARRSLNSGGST [F9S]` is recorded as -0.152.
Under “normalised enrichment score”, `SNARRSLNFGGSI [T13I]` is recorded as 0.411.
`SNARRFLNFGGST [S6F]` — result for “normalised enrichment score”: 1.36.
For `SNARRSLYFGGST [N8Y]`, “normalised enrichment score” read 0.181.
`SNARRSLNFGGSH [T13H]`: “normalised enrichment score” 0.14.
For `KNARRSLNFGGST [S1K]`, “normalised enrichment score” read 0.206.
`SNAFRSLNFGGST [R4F]` — result for “normalised enrichment score”: -0.474.
`SNANRSLNFGGST [R4N]`: “normalised enrichment score” 0.486.
Under “normalised enrichment score”, `SNARRSLQFGGST [N8Q]` is recorded as 0.32.
For `SNARKSLNLGGST [R5K F9L]`, “normalised enrichment score” read -0.0261.
Under “normalised enrichment score”, `SNARQSLNFGGST [R5Q]` is recorded as 0.434.
`SNARRSLNMGGST [F9M]`: “normalised enrichment score” 0.715.
`SNARNSLNFGGST [R5N]` — result for “normalised enrichment score”: -0.367.
`SNARRSLNFGGYT [S12Y]`: “normalised enrichment score” 0.0112.

A few entries again (block 4):
`SNAFRSLNFGGST [R4F]` — result for “normalised enrichment score”: -0.474.
`SNARRSLNFGGYT [S12Y]`: “normalised enrichment score” 0.0112.
`SNARRSLNFGGSH [T13H]`: “normalised enrichment score” 0.14.
For `SNARRRLNFGGST [S6R]`, “normalised enrichment score” read 1.11.
Under “normalised enrichment score”, `SNARRSLNFGGSI [T13I]` is recorded as 0.411.
For `SNARISLNFGGST [R5I]`, “normalised enrichment score” read 0.0537.
